Literature values, collected from citations in different studies.
Each numbered part shows a few of the values that one paper quotes.

Series 1
Organism: Cryptosporidium parvum
Technique: high-throughput screen
Concentration: concentration not given
| SMILES | activity |
| --- | --- |
| OCc1cccnc1 | inactive |
| COc1cc([C@@H]2c3cc4c(cc3[C@H](O)[C@H]3COC(=O)[C@H]23)OCO4)cc(OC)c1OC | inactive |
| CNCC[C@@H](Oc1ccccc1C)c1ccccc1 | inactive |

Other studies, line by line
| Compound | tested on | test | system | setting | quantity | result |
| --- | --- | --- | --- | --- | --- | --- |
| CN(C)c1ncnc(-c2ccc3nc(Nc4cc(CN5CCN(C(=O)CC(F)(F)F)CC5)ccn4)[nH]c3c2)c1Cl | TBK1 | biochemical |  | high ATP | IC50 | > 20000 nM |
| CCc1ccccc1-c1ccc(C(=O)NC[C@@H](N)C(=O)O)o1 | Glutamate receptor ionotropic, NMDA 1, with GluN2C (Grin1, Rattus norvegicus, UniProt P35439) |  |  | added: saturating glutamate | EC50 | 63 nM |
| COc1cc(-c2cn(C3CCc4ccccc4N(CC(F)(F)F)C3=O)nn2)ccc1-n1ccc(C)n1 (stereo not drawn) | gamma-secretase complex (human) | cellular activity |  |  | IC50 | > 10000 nM |
| CON(C)C(=O)N1N=C(c2cc(F)ccc2F)S[C@@]1(CCCN)c1ccccc1 |  |  | multiple myeloma patients | dose not given | median time to response | 3.7 months |
| CN(C)C(=O)c1sc2nc(N3CCC(S(C)(=O)=O)CC3)cc(C(F)(F)F)c2c1N | IKBKB | biochemical activity |  |  | IC50 | > 10000 nM |
| COc1ccc2c(O[C@@H]3C[C@H]4C(=O)N[C@]5(C(=O)O)CC5/C=C\CCCCC[C@H](NC(=O)OC5CCCC5)C(=O)N4C3)cc(-c3csc(NC(=O)C(C)C)n3)nc2c1C (stereo partly drawn) | HCV NS3 | viral replication, cell-based | hepatitis C virus, genotype 1a |  | EC50 | 4.6 nM |
